Assay results gathered from unrelated publications.
Compare with care: the assays were run in different laboratories. ± marks the error that the study gave.

For O=C(c1cc([N+](=O)[O-])ccc1Cl)N1CCN(c2ccc(F)cc2)CC1, the IC50 was greater than 200 µM (Saccharomyces cerevisiae; cell growth; wild type).
For Cc1nc2c(NCc3cccc(S(C)(=O)=O)c3)nccn2c1-c1ccc(O)c(F)c1, the IC50 was 0.019 ± 0.008 µM (Rhinovirus A; viral replication, high-content imaging; RV-A16).
The IC50 of COc1ccc(Nc2n[nH]c3nc(-c4ccccc4)nc(N)c23)cc1OC is reported as 6.95 µM (rhinovirus B5; viral cytopathic effect; HeLa).
The IC50 of CC(c1c[nH]c2ccccc12)c1c[nH]c2ccccc12 is reported as greater than 50 µM (Clostridium sporogenes; microbial growth, absorbance).
The IC50 of CNCc1ccc2c(c1)C[C@H](CNC(=N)N)[C@H]2NC(=O)C(=O)Nc1ccc(Cl)c(F)c1 is reported as 0.612 µM (HIV-1; pseudovirus infection, Env pseudovirus neutralisation; TZM-bl, clade B transmitted/founder).
With COc1ccccc1N1CCN(C(=O)c2ccc(Cl)c([N+](=O)[O-])c2)CC1 the IC50 was greater than 200 µM (Saccharomyces cerevisiae; cell growth; wild type).
COC1C=COC2(C)Oc3c(C)c(O)c4c(c3C2=O)C2=NC3(CCN(CC(C)C)CC3)NC2=C(NC(=O)C(C)=CC=CC(C)C(O)C(C)C(O)C(C)C(OC(=O)c2cccnc2)C1C)C4=O (stereo not shown) has an IC50 of 0.039 µM (Mycobacteroides abscessus; intracellular growth, visual read; THP-1 derived macrophages, ATCC 19977).
Cc1ccc(C(=O)N2CCN(c3ccc(F)cc3)CC2)cc1 gave an IC50 of greater than 200 µM (Saccharomyces cerevisiae; cell growth; wild type).
The IC50 of c1ccc2c([C+](c3c[nH]c4ccccc34)c3c[nH]c4ccccc34)c[nH]c2c1 is reported as greater than 50 µM (Clostridium sporogenes; microbial growth, absorbance).
The IC50 of O=C(NCC(O)(Cn1cncn1)c1ccc(F)cc1F)[c-]1cccc1.[Cl-].[Co+3].c1cc[cH-]c1 (racemic) is reported as 17.6 µM (Trypanosoma cruzi; parasite growth, resazurin; 24 h, trypomastigote).
O=C(c1cccc(Br)c1)N1CCN(c2ccc(F)cc2)CC1 has an IC50 of greater than 20 µM (Saccharomyces cerevisiae; microbial growth).
The IC50 of Nc1nc(-c2ccccc2)nc2[nH]nc(Nc3ccc(F)cc3)c12 is reported as 0.04 µM (rhinovirus B5; viral cytopathic effect; HeLa).
O=C(c1ccc(Br)c([N+](=O)[O-])c1)N1CCN(c2ccccc2F)CC1 has an IC50 of less than 20 µM (Saccharomyces cerevisiae; microbial growth).
For CC(C)CC(c1c[nH]c2ccccc12)c1c[nH]c2ccccc12, the IC50 was greater than 50 µM (Clostridium sporogenes; microbial growth, absorbance).
The IC50 of CCCCC(CC)COC(=O)CC(C(=O)OCC(CC)CCCC)S(=O)(=O)O.COC(=O)Nc1nc2cc(C(=O)c3ccc(F)cc3)ccc2[nH]1 (stereo not shown) is reported as 0.312 µM (Cryptococcus neoformans; EUCAST broth microdilution; clinical isolate; 72 h, 37 °C, RPMI with 2% glucose).
The IC50 of Nc1nc(-c2cccc(C(F)(F)F)c2)nc2[nH]nc(Nc3ccccc3)c12 is reported as 4.05 µM (rhinovirus B5; viral cytopathic effect; HeLa).
With O=C(c1cccc([N+](=O)[O-])c1)N1CCN(c2ccc(F)cc2)CC1 the IC50 was greater than 200 µM (Saccharomyces cerevisiae; cell growth; wild type).
Cc1cccc(Nc2n[nH]c3nc(-c4ccc(F)cc4F)nc(N)c23)c1 gave an IC50 of 26.8 µM (rhinovirus B5; viral cytopathic effect; HeLa).
O=C(N1CCc2ccccc21)n1ccnn1 gave an IC50 of 5.3 µM (Phelipanche ramosa; seed germination, antagonist; together with: 2-PEITC 100 nM).
For CCC1(CC)CC(=O)N(C2c3cc(C(=O)NC4c5ccccc5CC4O)ccc3OC2(C)COC)C(=N)N1 (stereo not shown), the IC50 was roughly 0.0017 µM (Plasmodium falciparum; merozoite egress; PEXEL-Nluc line).
For Cc1ccc(-c2nc(N)c3c(Nc4ccc(F)cc4)n[nH]c3n2)cc1, the IC50 was 0.22 µM (rhinovirus B5; viral cytopathic effect; HeLa).
With c1ccc(CC(c2c[nH]c3ccccc23)c2c[nH]c3ccccc23)cc1 the IC50 was greater than 50 µM (Clostridium sporogenes; microbial growth, absorbance).
The IC50 of Cc1nc(N)c2c(Nc3ccc(F)cc3)n[nH]c2n1 is reported as 79.2 µM (rhinovirus B5; viral cytopathic effect; HeLa).
CC(=O)C(C)(c1c[nH]c2ccccc12)c1c[nH]c2ccccc12 has an IC50 of greater than 50 µM (Clostridium sporogenes; microbial growth, absorbance).
O=C(c1ccc(Cl)c([N+](=O)[O-])c1)N1CCN(c2ccc(F)cc2)CC1 has an IC50 of 12.5 ± 2.8 µM (Saccharomyces cerevisiae; growth; ho∆/HO diploid control).
With Nc1nc(-c2ccccc2)nc2[nH]nc(Nc3ccccc3)c12 the IC50 was 0.02 µM (rhinovirus B5; viral cytopathic effect; HeLa).
O=C(c1ccc(I)cc1)N1CCN(c2ccc(F)cc2)CC1 has an IC50 of 3.75 ± 1.6 µM (Saccharomyces cerevisiae; cell growth; wild type).
CN(C)c1nc(-c2ccccc2)nc2[nH]nc(Nc3ccc(F)cc3)c12 gave an IC50 of 10.1 µM (rhinovirus B5; viral cytopathic effect; HeLa).
